Assay results gathered from unrelated publications.
Target: Platelet-derived growth factor receptor beta (PDGFRB, Homo sapiens, UniProt P09619)
Sequence of UniProt P09619 (whole entry, looked up): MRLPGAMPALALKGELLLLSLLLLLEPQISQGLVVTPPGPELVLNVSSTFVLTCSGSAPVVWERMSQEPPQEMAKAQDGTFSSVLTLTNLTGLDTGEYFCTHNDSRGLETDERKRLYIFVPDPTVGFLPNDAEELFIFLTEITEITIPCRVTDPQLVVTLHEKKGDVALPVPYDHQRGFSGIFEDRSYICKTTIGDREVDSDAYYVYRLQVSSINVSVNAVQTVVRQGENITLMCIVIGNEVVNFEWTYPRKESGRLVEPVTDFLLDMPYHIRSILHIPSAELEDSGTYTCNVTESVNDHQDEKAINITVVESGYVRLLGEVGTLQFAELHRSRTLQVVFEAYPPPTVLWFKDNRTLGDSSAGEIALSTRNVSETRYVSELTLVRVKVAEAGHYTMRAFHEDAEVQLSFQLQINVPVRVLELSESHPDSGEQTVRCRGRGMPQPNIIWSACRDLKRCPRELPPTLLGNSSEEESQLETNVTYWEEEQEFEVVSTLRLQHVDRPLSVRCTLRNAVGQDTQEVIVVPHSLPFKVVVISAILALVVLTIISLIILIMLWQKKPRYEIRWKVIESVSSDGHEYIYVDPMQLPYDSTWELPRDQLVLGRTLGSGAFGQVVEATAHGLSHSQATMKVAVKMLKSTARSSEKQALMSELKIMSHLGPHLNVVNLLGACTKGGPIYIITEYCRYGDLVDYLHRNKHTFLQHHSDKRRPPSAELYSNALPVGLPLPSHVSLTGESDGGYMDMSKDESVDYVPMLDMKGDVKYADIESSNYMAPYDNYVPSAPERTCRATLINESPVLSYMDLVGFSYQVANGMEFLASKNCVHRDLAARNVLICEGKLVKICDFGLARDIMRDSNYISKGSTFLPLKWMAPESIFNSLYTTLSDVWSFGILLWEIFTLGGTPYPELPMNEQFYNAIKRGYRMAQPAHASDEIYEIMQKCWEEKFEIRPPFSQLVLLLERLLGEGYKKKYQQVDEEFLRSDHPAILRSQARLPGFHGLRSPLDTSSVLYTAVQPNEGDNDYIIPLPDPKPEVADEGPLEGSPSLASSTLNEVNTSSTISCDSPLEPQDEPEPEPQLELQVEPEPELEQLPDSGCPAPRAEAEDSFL

CCCCC(=O)Nc1ccc(-c2ccc3ncn(CCC)c(=O)c3c2)cn1
remaining binding (binding, competition with immobilised ligand; 0.5 µM): 100%

C=CC(=O)N1CCC(COCC(=O)N2CCN(c3nc(-c4cnc(N)nc4C(F)F)nc(N4CCOC[C@@H]4C)n3)CC2)CC1
remaining binding (binding, competition with immobilised ligand; 1 µM): 100%

CN1CC(Oc2cnc(C#N)cc2-c2ccn3nc(NC(=O)C4CC4)cc3c2)C1
inhibition (enzyme activity, inhibitor; 1 µM): 10%

CNc1ncc2c(/C=C/C(=O)N3CCC(OC)CC3)nn(Cc3cccc(C(F)(F)F)c3)c2n1
remaining activity (enzyme activity, inhibitor, radiometric; 1 µM): 99%

FC(F)(F)Oc1cccc(-c2cnc3ccc(-c4ccncc4)nn23)c1
remaining binding (cell-free assay, competition with immobilised ligand; 5 µM): 11%

COc1cc(-c2cncc3c2CN(C)Cc2cc(N4CCNCC4)ccc2-3)cc(OC)c1OC
remaining activity (enzyme activity, inhibitor; 1 µM): 88%

Cc1cc([C@@H](C)Nc2ccccc2C(=O)O)c2nc(N3CCC(F)(F)CC3)c(C#N)c(=O)n2c1
remaining binding (binding, competition with immobilised ligand; 10 µM): 100%

Cc1cc(NC(=O)c2cccc(NC(=O)/C=C/CN(C)C)c2)ccc1Nc1nccc(-c2cccnc2)n1
remaining binding (binding, competition with immobilised ligand; 1 µM): 30%

A few entries again:
C=CC(=O)N1CCC(COCC(=O)N2CCN(c3nc(-c4cnc(N)nc4C(F)F)nc(N4CCOC[C@@H]4C)n3)CC2)CC1
remaining binding (binding, competition with immobilised ligand; 1 µM): 100%
